Measured values of several laboratories.
Each numbered part is a random draw from the data of one study; scales do not carry over between parts.

Block 1
Target: Prothrombin, mature alpha-thrombin (F2, Homo sapiens, UniProt P00734)
Method: aptamer microarray, sandwich
Molecule type: DNA with 2'F-ANA
Sample: in vitro
Tested at: 200 nM
Notes: whole 15-mer aptamer, many near background
With: Cy3 exosite-II aptamer, 400 nM
Reading: higher = stronger binding
Strand: GGTTGGTGTGGTTGG
Modification	mean fluorescence intensity
2'F-ANA at 1 2 3 5 6 7 8 10 11 15	54.6 a.u.
2'F-ANA at 3 5 8 9 11 13 14	58.5 a.u.
2'F-ANA at 1 4 5 6 8 11 14	45.5 a.u.
2'F-ANA at 1 2 5 8 9 13 14	45.6 a.u.
2'F-ANA at 1 4 5 6 8 9 11 15	51.5 a.u.
2'F-ANA at 4 6 8 9	276 a.u.
2'F-ANA at 1 6 7 8 10 15	56.9 a.u.
2'F-ANA at 6 7 8 9 11 14 15	142 a.u.
2'F-ANA at 1 2 3 5 7 13 14 15	96.8 a.u.
2'F-ANA at 2 3 5 8 10 11 13	52.3 a.u.
2'F-ANA at 2 4 7 8 10 11 12	119 a.u.
2'F-ANA at 1 3 7 9 10 11 12 14	76.7 a.u.
2'F-ANA at 1 2 5 6 7 8 9 11 13 14 15	47.9 a.u.
2'F-ANA at 1 2 3 6 8 11 13 15	177 a.u.
2'F-ANA at 2 4 5 6 7 8 10 12 13	49.4 a.u.
2'F-ANA at 4 5 6 8 14 15	46.9 a.u.
2'F-ANA at 2 3 4 6 7 8 9 10 11 12 13 14	163 a.u.
2'F-ANA at 5 8 9 10 12	48.1 a.u.
2'F-ANA at 1 2 4 5 6 8 9 12 13 15	84.7 a.u.
2'F-ANA at 1 2 3 5 12 13 14 15	46.6 a.u.
2'F-ANA at 1 7 10 13 14 15	45.9 a.u.
2'F-ANA at 3 5 11 13 15	120 a.u.
2'F-ANA at 1 2 6 14 15	56.5 a.u.
2'F-ANA at 1 2 4 5 6 7 8 10 11 15	73.2 a.u.

Block 2
Target: RNA binding protein fox-1 homolog 2, RRM domain, GST-SBP tag (RBFOX2, Homo sapiens, UniProt O43251-10, residues 100-194)
Method: RNA Bind-n-Seq
Molecule type: RNA
Sample: in vitro
Tested at: 365 nM
Notes: natural RNA segment, single round, ends assumed
Relative to: no-protein control
Reading: higher = stronger binding
Construct (chain): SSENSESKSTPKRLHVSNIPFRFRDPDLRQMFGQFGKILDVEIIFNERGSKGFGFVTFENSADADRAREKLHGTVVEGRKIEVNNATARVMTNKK
Strand	RBNS enrichment (R)
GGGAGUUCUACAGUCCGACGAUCUGGUACAAUCAGAGCUCCGUGGGGACUGUAGGGAGCAGGGUGUUACUACUGGCCGUUCUUCCCACAGUGAUUAACGGUAGAGAUCAAGCUCAGUCCCCUUUAUCCCCCCCUGGAAUUCUCGGGUGCCAA	0.223
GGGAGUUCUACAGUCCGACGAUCCAGAAGGGUAAAACUGACUCUUAAUGAGAAAAGCUUUAUAAGUUCAAGGGCUGUAAAAUAUGAACUACUUAGGGUCGUUUGCCUUCCAUGGGAACUUGGCUAGACUUAGAUGGAAUUCUCGGGUGCCAA	0.45
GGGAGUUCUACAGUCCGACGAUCUGAGGGUUUUAGACAAUCUCUAGGAAAGGGAUACAAAACAGAUCCGAUGGAAGAAACCUACUUCCCUAUCCUGCCUAUCCUGCCCCUCAACCUCUUCAUUCCUAAUUCCUUGGAAUUCUCGGGUGCCAA	0.488
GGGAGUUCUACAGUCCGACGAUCAAGAUUGUCCCGCCUCUGCCAAUCCCCGCCGUCCUUCCAGCCCACGACCUGCCGCGCCGAGGAGCGGCAUCUGUCCCGUUUCCCGAUUGGGUCUGUCGUCUCUCUCCGCCUGGAAUUCUCGGGUGCCAA	0.462
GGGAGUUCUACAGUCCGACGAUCUUCAGAGACUACUUUGUCACUCACUGACCAUGUCUGGUUCCUUCUCUGAACUUCAUUCUCCCCAUAAGCCAAACAAGAACAGACCUCCCCCGCCACCUCCCAGGCACCGUUGGAAUUCUCGGGUGCCAA	1.05
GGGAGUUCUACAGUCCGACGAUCCCCCAGAUUCCCUGAAAAUCCUGAGAUCAAUCACAUUUAACAUCAGAAGAACCCUUAGUGUCCACCUGGCCCUAUGUUUCCCAGAAUUCAAGCGGAAAACAUCUGAGAAUUGGAAUUCUCGGGUGCCAA	0.267
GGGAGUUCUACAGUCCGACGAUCGCUGUUCCCCUCGGGAACAUGAGGUGGUGGUGGCGCAGCAGACUGCGAUCAAUUCUGCAUGGUCACAGUAGAGAUCCCCGCAACUCGCUUGUCCUUGGGUCACCCUGCAUUGGAAUUCUCGGGUGCCAA	3.95
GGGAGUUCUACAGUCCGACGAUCUACUUUAGAAACAAAUGAAAAAGGCAAUUGAAAAUCCCAGCUAUUUCACCUAGAUGGAAUAGCCACCCUGAGCAGAACUUUGUGAUGCUUCAUUCUGUGGAAUUUUGUGCUGGAAUUCUCGGGUGCCAA	0.417
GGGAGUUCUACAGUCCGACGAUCUUGACCUUUUAGAGUCUGCAUACCCACCUGUAUAACAAGGUGGAUUGAAUGAGACAAUGCCCACGAAAUGCCCAGUUACAGUACCUGGUUCAAAACUUACUGCAUUUUAAUGGAAUUCUCGGGUGCCAA	0.628
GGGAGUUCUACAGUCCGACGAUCCUGGAUCAUAGAGUGACCUUUAAUAAGUUAAAAAAACGAGGACUCCUUAAUUCUGCUAGAGUUAACCUUGAGUUCAGAGCAGUAUUAAAUGCGUGCACUUUCAGGUCAGUUGGAAUUCUCGGGUGCCAA	0.465
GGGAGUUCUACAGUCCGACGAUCCAAAAACAACAACAAAAUGAAACGCAACCACCACCAACCACUGCGACCACAAGAAGGAUGAUUCAACAGGUUUUCCUGAAGAAUUGAAAAACCAUUUUGCUGUCCCUUUUUGGAAUUCUCGGGUGCCAA	0.509
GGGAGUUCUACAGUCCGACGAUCGUUGUUCUGUGUAGCUUUGGCUCUCCUAGAACUUGCUCUGUAGACCAGGCUGGCCUUGAACACAGAAAGAGAUUCAUCUGCCUCUGCCUCCUGAGUGCUGGGAUUAAAGGUGGAAUUCUCGGGUGCCAA	0.288

Block 3
Target: Sal-like protein 4, full length isoform B (SALL4, Homo sapiens, UniProt Q9UJQ4-2, residues 1-616)
Method: universal PBM
Molecule type: double-stranded DNA, one strand shown
Sample: in vitro
Tested at: not given
Notes: 8-mer, flanks averaged, mean of replicates
Reading: higher = stronger binding
Strand	E-score
ACACTCAG	-0.138
CTGTAAAG	0.0787
CAAAATCA	0.136
ATTTTGGA	0.265
CGGCATAC	-0.176
ATCTAAGG	0.104
ACTGAACT	0.034
ACCGAACT	-0.239
ACCATTTA	0.229
AGCCGTGC	-0.21
ACAATGCA	0.229
CATTGAAC	0.112
ATCGGCGG	-0.213
GTTCGATA	0.18
GTCATCCA	-0.0761
GATTGGCA	-0.0688
ATTACACA	0.317
AAACTAGC	0.0779
AACCATGG	-0.0709
CTATGTTA	0.21
CGGTTATC	-0.0705
TACAGGAA	0.129
AAGTGCCT	-0.182
AGAGCCAA	-0.017

Block 4
Target: RING finger protein unkempt homolog, zinc fingers 1-6, GST-SBP tag (UNK, Homo sapiens, UniProt Q9C0B0, residues 30-357)
Chain of UniProt Q9C0B0 (30-357, looked up): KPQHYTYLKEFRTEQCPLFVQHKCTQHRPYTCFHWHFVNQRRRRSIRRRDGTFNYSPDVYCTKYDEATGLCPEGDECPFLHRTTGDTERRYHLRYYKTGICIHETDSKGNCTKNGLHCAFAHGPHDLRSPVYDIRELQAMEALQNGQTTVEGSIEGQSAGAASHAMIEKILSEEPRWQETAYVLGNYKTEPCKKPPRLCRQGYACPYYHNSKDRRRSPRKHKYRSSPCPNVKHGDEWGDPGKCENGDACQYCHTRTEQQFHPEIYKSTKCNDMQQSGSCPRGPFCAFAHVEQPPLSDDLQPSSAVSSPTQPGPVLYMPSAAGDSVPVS
Method: RNA Bind-n-Seq
Molecule type: RNA
Sample: in vitro
Tested at: not given
Notes: RNA with constant flanks, human and mouse sites, ends assumed
Relative to: input RNA pool
Reading: higher = stronger binding
Strand	bound/input enrichment
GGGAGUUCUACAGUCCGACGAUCAAGGAAACACAGAUGGUGAAGAUUAAAGAGGAACCCAUGGAGGUUGACAUCCAGGACUCCCAUGUCUCGAUAUCACCCAGCCGGAAUGUUGGCUACAGCACUUUAAUCGGGCGAGAGAAACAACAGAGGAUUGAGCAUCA	0.131 ratio
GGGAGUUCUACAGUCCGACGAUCAUUCGAUUGCUAUAUGCAAAGCGACCAGGAAUUGGACUUUCACCAUCCCAUAGGAGAUACCUGGGCUAUAUGUGUGACCUACUGGCAGACAAGCCCUACCGCCCUCACUUCAAGCCUCUCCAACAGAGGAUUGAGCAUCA	0.184 ratio
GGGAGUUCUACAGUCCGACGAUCAAAAUAUAUAUAAAUUUACUUCACUGCUUUUUUUUUUUUUGGACAUAAGGGCUGUGUGUAUAUAGCCCCUGUUGGCCUCAAAACUCACAGUCCUCUCAUCAAGAGGUAGGAUUCUGGGCACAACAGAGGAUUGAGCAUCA	0.903 ratio
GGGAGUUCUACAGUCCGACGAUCAACCGUCUCCAUGUAACUCUUGACAUACUUUUCUGAGAUUUGGCUUAUUUUUAUUAUUGGUUAUUUCUCACUGUUCAUUCUAUUUGAUUUAUUCUACAACAUCCCCUUUUAUUUAAUGAUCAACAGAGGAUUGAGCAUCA	0.735 ratio
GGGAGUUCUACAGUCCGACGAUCACUGCUGCCAAAUUCAUUGGUGCAGGUGCUGCAACAGUAGGAGUUGCUGGUUCUGGUGCUGGUAUUGGAACAGUCUUUGGCAGUCUUAUCAUUGGUUAUGCCAGAAACCCUUCACUGAAGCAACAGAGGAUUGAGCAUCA	0.117 ratio
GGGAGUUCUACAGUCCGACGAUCAUCUCCUCCAUCCUGGGCACCUGGCUGGACCAAUACUCAGAGGAUUUCUGUCAACCUCCGGACUUUCCCUGCCUCAAGCAGCUGGUGGCUUAUGUACAGCUCAACAUGCCUGGCUCAGAUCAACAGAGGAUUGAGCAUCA	0.123 ratio
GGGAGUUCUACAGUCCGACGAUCAAUGAAACCGGCUUAUUGUCUUCAAUUAAAAAGUUCAUUAAAGGAAGCACACCCAAGGAAGAGAGAGAAAAUCCUUCGAAGCGGAGUAGAAUUGAACGUGAUAUAGAUAAUAAUUUAAUCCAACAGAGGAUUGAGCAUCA	4.01 ratio
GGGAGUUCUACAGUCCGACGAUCCCCGAGAUAUGCACCCAAUGUCCAGGGAGCGUGCAAAAUUUGUCAAAAGUGGCCUUUUAUUGUAAAACGACACGAGAGCUAAUGCUGCAUGCCCGUUGCUGCCUGAAUCAGAAGGGCACCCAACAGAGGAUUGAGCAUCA	0.122 ratio
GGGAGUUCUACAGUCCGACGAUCAUCCACAGUAUUGUUCUUGUAAAACUGUGACAUUCCACAGAGUUACUGCCACGGUCCUUUGAGUGUCAGGCUCUGAAUCUCUCAAAAUGUGCCGUCUUUGGUUCCUCAUGGCUGUUAUCUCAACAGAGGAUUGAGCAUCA	0.116 ratio
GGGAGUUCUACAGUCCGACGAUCUUUUCAGUAAGACUUUCAGGCACUUCUUCCCUUUUGAUUUCUUUUUUUUCCUCUGUUUUUUAGCAUGCAAGUAUGUUGGUACGUUAUGUCCUGGUUUAAAAAGGAUUAAAAUUUUAAAAUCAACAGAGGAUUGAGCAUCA	0.709 ratio
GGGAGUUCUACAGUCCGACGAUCGGAACGGAGCAAUUUACAGCAAUGAGGGAUUUAUACAUGAAAAAUGGACAAGGAUUUGCAUUAGUUUAUUCCAUCACAGCACAGUCCACAUUUAACGAUUUACAAGACCUGAGAGAACAGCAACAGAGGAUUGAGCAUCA	0.805 ratio

Some of these lines once more (block 3):
Strand	E-score
ACCATTTA	0.229
AGCCGTGC	-0.21
ACAATGCA	0.229
CATTGAAC	0.112
ATCGGCGG	-0.213
